# Measured values pooled from the literature.
# Numbers after ± are the reported error.
# IDE: Insulin-degrading enzyme (IDE, Homo sapiens, UniProt P14735)
# Chain of UniProt P14735 (whole entry, looked up): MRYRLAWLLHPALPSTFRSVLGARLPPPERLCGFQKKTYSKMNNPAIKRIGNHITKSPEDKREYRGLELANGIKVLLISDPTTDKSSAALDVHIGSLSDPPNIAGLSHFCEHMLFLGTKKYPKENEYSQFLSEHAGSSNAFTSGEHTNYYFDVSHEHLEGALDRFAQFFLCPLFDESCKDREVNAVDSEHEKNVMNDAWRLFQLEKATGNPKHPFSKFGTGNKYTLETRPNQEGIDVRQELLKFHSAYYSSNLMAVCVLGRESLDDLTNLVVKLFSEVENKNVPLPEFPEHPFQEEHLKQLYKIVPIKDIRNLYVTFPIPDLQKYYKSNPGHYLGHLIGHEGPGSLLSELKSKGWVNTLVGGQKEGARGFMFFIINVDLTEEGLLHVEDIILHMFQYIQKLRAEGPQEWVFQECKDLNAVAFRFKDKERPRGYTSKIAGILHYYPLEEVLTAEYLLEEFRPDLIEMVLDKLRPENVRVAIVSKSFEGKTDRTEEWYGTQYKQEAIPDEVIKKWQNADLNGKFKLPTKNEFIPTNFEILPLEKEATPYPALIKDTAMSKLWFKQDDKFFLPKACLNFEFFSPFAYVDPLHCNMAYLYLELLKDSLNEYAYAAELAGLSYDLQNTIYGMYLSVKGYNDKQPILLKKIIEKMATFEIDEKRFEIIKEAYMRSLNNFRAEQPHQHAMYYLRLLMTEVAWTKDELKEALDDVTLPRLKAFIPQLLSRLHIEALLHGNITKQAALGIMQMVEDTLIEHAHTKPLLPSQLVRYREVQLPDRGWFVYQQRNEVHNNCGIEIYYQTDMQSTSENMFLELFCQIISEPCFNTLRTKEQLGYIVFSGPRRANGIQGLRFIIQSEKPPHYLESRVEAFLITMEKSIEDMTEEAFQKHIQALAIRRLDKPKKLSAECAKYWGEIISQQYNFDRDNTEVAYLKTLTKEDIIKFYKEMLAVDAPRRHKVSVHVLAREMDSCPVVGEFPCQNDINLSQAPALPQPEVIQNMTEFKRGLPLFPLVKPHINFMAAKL
# Methyl-accepting chemotaxis protein CtaA sensing domain: Methyl-accepting chemotaxis protein CtaA, sensing domain (Pseudomonas fluorescens, UniProt Q3K7T6)
# Chain of UniProt P33527 (whole entry, looked up): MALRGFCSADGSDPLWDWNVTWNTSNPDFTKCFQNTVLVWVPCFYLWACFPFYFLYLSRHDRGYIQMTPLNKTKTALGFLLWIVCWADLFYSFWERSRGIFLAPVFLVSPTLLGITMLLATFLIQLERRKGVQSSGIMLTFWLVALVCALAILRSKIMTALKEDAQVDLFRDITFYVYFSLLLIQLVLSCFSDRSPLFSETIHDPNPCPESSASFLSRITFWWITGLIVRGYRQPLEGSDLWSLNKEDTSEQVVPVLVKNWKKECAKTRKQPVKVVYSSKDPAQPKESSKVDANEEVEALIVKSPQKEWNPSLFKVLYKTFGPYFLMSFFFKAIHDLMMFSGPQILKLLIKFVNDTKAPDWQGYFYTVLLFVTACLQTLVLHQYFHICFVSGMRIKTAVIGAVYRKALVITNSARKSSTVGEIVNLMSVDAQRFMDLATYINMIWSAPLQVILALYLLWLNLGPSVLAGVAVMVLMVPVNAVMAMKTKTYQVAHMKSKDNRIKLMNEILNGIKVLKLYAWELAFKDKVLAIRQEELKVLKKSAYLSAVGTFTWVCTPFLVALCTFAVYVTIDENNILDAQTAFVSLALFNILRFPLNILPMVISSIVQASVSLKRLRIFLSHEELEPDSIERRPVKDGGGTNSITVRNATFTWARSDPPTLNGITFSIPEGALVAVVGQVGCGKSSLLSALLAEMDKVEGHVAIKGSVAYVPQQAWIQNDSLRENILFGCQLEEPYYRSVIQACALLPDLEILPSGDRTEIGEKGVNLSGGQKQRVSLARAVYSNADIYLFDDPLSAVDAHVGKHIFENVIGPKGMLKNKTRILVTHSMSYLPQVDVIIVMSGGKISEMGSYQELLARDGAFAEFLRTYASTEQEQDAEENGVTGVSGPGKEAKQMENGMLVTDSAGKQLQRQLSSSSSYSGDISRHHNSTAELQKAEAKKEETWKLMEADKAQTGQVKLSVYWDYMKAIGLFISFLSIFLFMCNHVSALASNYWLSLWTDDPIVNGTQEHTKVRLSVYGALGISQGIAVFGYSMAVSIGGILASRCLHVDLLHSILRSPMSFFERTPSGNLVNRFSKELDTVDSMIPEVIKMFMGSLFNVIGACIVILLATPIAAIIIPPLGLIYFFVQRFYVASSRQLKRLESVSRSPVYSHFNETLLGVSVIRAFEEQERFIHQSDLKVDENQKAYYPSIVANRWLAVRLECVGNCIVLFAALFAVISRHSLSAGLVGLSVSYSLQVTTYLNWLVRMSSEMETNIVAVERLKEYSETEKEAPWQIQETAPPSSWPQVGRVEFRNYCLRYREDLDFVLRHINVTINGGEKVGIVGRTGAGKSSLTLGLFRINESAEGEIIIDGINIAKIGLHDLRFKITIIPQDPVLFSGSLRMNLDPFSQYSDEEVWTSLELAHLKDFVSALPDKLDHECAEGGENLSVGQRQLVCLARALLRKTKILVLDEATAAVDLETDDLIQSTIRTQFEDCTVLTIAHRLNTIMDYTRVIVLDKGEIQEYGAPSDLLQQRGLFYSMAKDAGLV
Compound,tested on,test,system,conditions,quantity,result
O=S(=O)(Nc1ccn(O)c(=S)c1)c1cccs1,IDE,"substrate degradation, inhibitor",,"mean of insulin, Aβ, substrate V",Ki,17 µM
C[C@H](N)C(=O)O,Methyl-accepting chemotaxis protein CtaA sensing domain,"binding, thermal shift, zero heat capacity",,,Kd,8.9 ± 0.6 µM
CC(C)(C)c1ccc(S(=O)(=O)/C=C/C#N)cc1,HEK293 NF-κB luciferase reporter,"NF-κB reporter gene, antagonist",,"24 h, with: TNFα 5 ng/mL",EC50,31.7 µM
O=C1NC(=O)c2cc(Nc3ccc(F)cc3)c(Nc3ccc(F)cc3)cc21,HeLa expressing ODD-Luc,"ODD-Luc degradation, inhibitor, cycloheximide chase luciferase",,,IC50,~10 µM
CC[C@H](C)[C@H](NC(=O)OCc1ccccc1)C(=O)N[C@@H](CCC(=O)OC(C)(C)C)C(=O)N[C@@H](C)C(=O)N[C@H](C=O)CC(C)C,HEK293 NF-κB luciferase reporter,"NF-κB reporter gene, antagonist",,"24 h, with: TNFα 5 ng/mL",EC50,0.01 µM
O=C1c2ccccc2-c2nc3nnnn3nc21,HeLa expressing ODD-Luc,"ODD-Luc degradation, inhibitor, cycloheximide chase luciferase",,,IC50,3.4 ± 0.9 µM
CC(C)[C@H](N)C(=O)O,Methyl-accepting chemotaxis protein CtaA sensing domain,"binding, thermal shift, unfolding equilibrium",,25 °C,Kd,3 ± 0.5 µM
C[C@]1(CO)CN(c2cc(C(=O)Nc3ccc4c(c3)-c3c(c(C(N)=O)nn3-c3ccc(F)cc3)CC4)c(Cl)cn2)C[C@@]1(C)CO,HEK293 NF-κB luciferase reporter,"NF-κB reporter gene, antagonist",,"24 h, with: TNFα 5 ng/mL",EC50,0.901 µM
O=S(=O)(Nc1cccn(O)c1=S)c1ccc(Br)s1,IDE,"substrate degradation, fluorescence polarisation",,mean of physiological substrates,Ki,5 µM
Cn1nc2c3c(cccc31)C(=O)c1ccccc1-2,HeLa expressing ODD-Luc,"ODD-Luc degradation, inhibitor, cycloheximide chase luciferase",,,IC50,0.15 ± 0.01 µM
O=c1[nH]c2ccccc2n1C1CCN(CCCC(c2ccc(F)cc2)c2ccc(F)cc2)CC1,"ABCC1 (Homo sapiens, UniProt P33527)","substrate efflux, inhibitor, flow cytometry",ABCC1-overexpressing SupT1-Vin cells,with: BODIPY-FL-histamine 500 nM,IC50,11.1 ± 6.4 µM
N[C@@H](CO)C(=O)O,Methyl-accepting chemotaxis protein CtaA sensing domain,"binding, thermal shift, curve fitting",,,Kd,4.9 ± 1.3 µM
Cc1ccc(S(=O)(=O)/C=C/C#N)cc1,HeLa expressing ODD-Luc,"ODD-Luc degradation, inhibitor, cycloheximide chase luciferase",,,IC50,0.6 ± 0.08 µM
CC(C)C[C@H](N)C(=O)O,"Methyl-accepting chemotaxis protein CtaA (Pseudomonas fluorescens, UniProt Q3K7T6)","binding, ITC",,,Kd,10 ± 2 µM
Cc1ccc(NS(=O)(=O)c2cccs2)c(=S)n1O,IDE,"substrate degradation, fluorescence polarisation",,mean of physiological substrates,Ki,12 µM
Cc1cc2nc(NCCCO)n(CC(=O)c3cc(C(C)(C)C)c(O)c(C(C)(C)C)c3)c2cc1C,HEK293 NF-κB luciferase reporter,"NF-κB reporter gene, antagonist",,"24 h, with: TNFα 5 ng/mL",EC50,8.59 µM
CC[n+]1c(/C=C/N(C)c2ccccc2)n(-c2ccccc2)c2ccc(-c3nc4ccccc4s3)cc21,HeLa expressing Luc-ODC,"Luc-ODC degradation, inhibitor, cycloheximide chase luciferase",,,IC50,12 ± 5 µM
CC1=C(CO)C(=O)O[C@@H]([C@@H](C)[C@H]2CC[C@H]3[C@@H]4C[C@H]5O[C@]56[C@@H](O)C=CC(=O)[C@]6(C)[C@H]4CC[C@]23C)C1,C2C12 myoblasts,"NF-κB reporter gene, inhibitor",,"24 h pretreatment, with: TNF-α 10 ng/mL, 24 h",IC50,0.562 µM

# Some of these lines once more:
Compound,tested on,test,system,conditions,quantity,result
O=c1[nH]c2ccccc2n1C1CCN(CCCC(c2ccc(F)cc2)c2ccc(F)cc2)CC1,"ABCC1 (Homo sapiens, UniProt P33527)","substrate efflux, inhibitor, flow cytometry",ABCC1-overexpressing SupT1-Vin cells,with: BODIPY-FL-histamine 500 nM,IC50,11.1 ± 6.4 µM
